Results collected from several papers.
Protocols differ between the studies behind these lines. pEC50, pIC50: −log10 of the molar value.
Cell line: K562

SMILES	assay	conditions	how to read	endpoint	result
Cc1cc(C)cc(NC(=O)N(Cc2ccc(C(=O)NO)cc2)OCc2ccccc2)c1	cell growth or viability, ATP luminescence	72 h		pIC50	5.24
CN1CCC(N[C@@H]2CCc3[nH]c4c(C(N)=O)ccc(-c5ccccc5Cl)c4c3C2)CC1	cell growth or viability			pIC50	7.62
N#Cc1c(N)nc2c(c1-c1ccc(CO)o1)Cc1cc(O)ccc1-2	cell growth or viability, ATP luminescence			pIC50	4.60
C=C(NC(=O)c1csc(-c2ccc(NC(=O)CCCCCBr)cc2)n1)C(=O)NC(=C)C(=O)OC	cell growth or viability			pEC50	5.92
C/C1=C/[C@H](C)C[C@H](C)OC(=O)C[C@H](c2ccc(O)cc2)NC(=O)[C@@H](Cc2ccc(O)c(I)c2)N(C)C(=O)[C@H](C)NC(=O)[C@@H](C)C1	cell growth or viability			GI50	10.6 µg/mL
COc1cc(O)ccc1-c1c[nH]c2ncc(-c3cncc(C(=O)N(C)C)c3)cc12	cell growth or viability, MTT	72 h		GI50	142 nM
CCOc1cncc(-c2ccc(NC(=O)C3(c4ccnc(NS(=O)(=O)C5CC5)n4)CCOCC3)nc2)n1	cell proliferation, CellTiter-Glo	72 h		pIC50	7.37
CNS(=O)(=O)Nc1nccc(Cc2c(C)c3ccc(Oc4ncccc4F)cc3oc2=O)c1F	cell viability	7 days		pIC50	7.70
COC(=O)[C@H](C)NC(=O)[C@H](C)NC(=O)c1csc(-c2cccnc2)n1	cell growth or viability			pEC50	< 4.52
Cc1ccc(-c2c(C#N)c(N)nc3c2Cc2cc(O)ccc2-3)o1	cell viability, CellTiter-Glo		no inhibition at 100 µM	pIC50	< 4.00
COc1cc(/C=C/C(=O)/C=C(O)/C=C/c2ccc(OCC(=O)N3CCOCCOCCOCCOCCOCC3)c(OC)c2)ccc1OCC(=O)N1CCOCCOCCOCCOCCOCC1	cell growth or viability, SRB	25 µM		inhibition	91%
CCCC(CCC)C(=O)OCc1cn(-c2cc3ccccc3oc2=O)nn1	NCI60 single-dose screen	10 µM		growth percentage	93.3%
C/C1=C/[C@H](C)C[C@H](C)OC(=O)C[C@H](c2ccc(O)cc2)NC(=O)[C@@H](Cc2ccc(O)cc2)N(C)C(=O)[C@H](C)NC(=O)[C@@H](C)C1	cell growth or viability			GI50	29.5 µg/mL
C=CC(=O)Nc1ccc(OC)c(-c2c[nH]c3ncc(-c4cncc(C(=O)N(C)C)c4)cc23)c1	cell growth or viability, MTT	72 h		GI50	> 1000 nM
Cc1[nH][n+]([Pd-2]([Cl])([Cl])[n+]2[nH]c(C)c(CSC3CCCCC3)c2C)c(C)c1CSC1CCCCC1	cytotoxicity		baseline: IC50 HEK293 over IC50 K562	selectivity index	1.4
C=CS(=O)(=O)c1ccc(OC)c(-c2c[nH]c3ncc(-c4cncc(C(=O)N(C)C)c4)cc23)c1	cell growth or viability, MTT	72 h		GI50	> 1000 nM
NC(=O)c1ccc(-c2ccccc2Cl)c2c3c([nH]c12)CCC(N)C3 (centres unmarked)	cell growth or viability	96 h		pIC50	7.58
Cc1nc(NCCOCCNc2ncc(C(=O)NC3=NN(c4ccc(Cl)c(Cl)c4)CC3)c(C)n2)ncc1C(=O)NC1=NN(c2ccc(Cl)c(Cl)c2)CC1	cell growth or viability, ATP luminescence	72 h		pEC50	5.80
COc1cc(/C=C/C(=O)/C=C(O)/C=C/c2ccc(OCC(=O)N3CCOCCOCCOCCOCC3)c(OC)c2)ccc1OCC(=O)N1CCOCCOCCOCCOCC1	cell growth or viability, SRB	25 µM		inhibition	94.5%
Cc1nc(NCCOCCOCCNc2ncc(C(=O)NC3=NN(c4ccc(Cl)c(Cl)c4)CC3)c(C)n2)ncc1C(=O)NC1=NN(c2ccc(Cl)c(Cl)c2)CC1	cell growth or viability, ATP luminescence	72 h		pEC50	7.16
N#Cc1c(N)nc2c(c1-c1ccc(CO)o1)Cc1c(O)cccc1-2	cell viability, CellTiter-Glo		no inhibition at 100 µM	pIC50	< 4.00
Cc1[nH][n+]([Pd-2]([Br])([Br])[n+]2[nH]c(C)c(CSC3CCCCC3)c2C)c(C)c1CSC1CCCCC1	cytotoxicity		baseline: IC50 HEK293 over IC50 K562	selectivity index	3.7
Cc1sc2c(c1C)C(c1ccc(Cl)cc1)=N[C@@H](CC(=O)NCCN(C)CCCCNC(=O)CCCCOc1cccc3c1C(=O)N([C@H]1CCC(=O)NC1=O)C3=O)c1nnc(C)n1-2	cell growth or viability, CCK-8	72 h		pIC50	6.41
Cc1[nH][n+]([Pd-2]([Br])([Br])[n+]2[nH]c(C)c(CSCc3ccccc3)c2C)c(C)c1CSCc1ccccc1	cytotoxicity		baseline: IC50 HEK293 over IC50 K562	selectivity index	1.4
COc1ccc(O)cc1-c1c[nH]c2ncc(-c3cncc(C(=O)N(C)C)c3)cc12	cell growth or viability, MTT	72 h		GI50	17 nM
CCN(C(=O)c1cc(F)ccc1Oc1nncnc1N1CCC2(C1)CN([C@H](CCCN(C)CCOC)C(C)C)C2)C(C)C	cell growth or viability	7 days		GI50	> 10000 nM

Repeated from above:
SMILES	assay	conditions	how to read	endpoint	result
COc1cc(/C=C/C(=O)/C=C(O)/C=C/c2ccc(OCC(=O)N3CCOCCOCCOCCOCCOCC3)c(OC)c2)ccc1OCC(=O)N1CCOCCOCCOCCOCCOCC1	cell growth or viability, SRB	25 µM		inhibition	91%
CCCC(CCC)C(=O)OCc1cn(-c2cc3ccccc3oc2=O)nn1	NCI60 single-dose screen	10 µM		growth percentage	93.3%
